Measurements collected from several papers.
Values joined by “and” are separate records of one study, mostly repeats; a detail may differ. Numbers after ± are the reported error.
Beta-lactamase OXA-10: Beta-lactamase OXA-10 (Pseudomonas aeruginosa, UniProt P14489)
UniProt P14489, sequence (whole entry, looked up): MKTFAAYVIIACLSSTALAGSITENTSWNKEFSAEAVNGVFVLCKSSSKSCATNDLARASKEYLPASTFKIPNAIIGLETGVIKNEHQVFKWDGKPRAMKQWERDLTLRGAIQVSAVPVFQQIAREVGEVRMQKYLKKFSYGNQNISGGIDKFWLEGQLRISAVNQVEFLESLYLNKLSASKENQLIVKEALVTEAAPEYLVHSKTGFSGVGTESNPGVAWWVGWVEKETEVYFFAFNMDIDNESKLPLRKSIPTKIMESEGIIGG
SULT2A1: Sulfotransferase 2A1 (SULT2A1, Homo sapiens, UniProt Q06520)
UniProt Q06520, sequence (whole entry, looked up): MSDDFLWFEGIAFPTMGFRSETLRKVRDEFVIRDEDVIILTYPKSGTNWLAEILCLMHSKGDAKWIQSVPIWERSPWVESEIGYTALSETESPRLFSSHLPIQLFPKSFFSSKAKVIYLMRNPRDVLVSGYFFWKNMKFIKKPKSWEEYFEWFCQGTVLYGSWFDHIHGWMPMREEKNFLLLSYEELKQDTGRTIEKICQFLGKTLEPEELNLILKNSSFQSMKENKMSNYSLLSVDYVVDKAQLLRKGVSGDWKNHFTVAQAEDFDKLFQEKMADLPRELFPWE
Genome polyprotein NS2B-NS3 protease: Genome polyprotein, NS2B-NS3 protease (ZIKV, UniProt A0A024B7W1)
UniProt Q8I6U4, sequence (whole entry, looked up): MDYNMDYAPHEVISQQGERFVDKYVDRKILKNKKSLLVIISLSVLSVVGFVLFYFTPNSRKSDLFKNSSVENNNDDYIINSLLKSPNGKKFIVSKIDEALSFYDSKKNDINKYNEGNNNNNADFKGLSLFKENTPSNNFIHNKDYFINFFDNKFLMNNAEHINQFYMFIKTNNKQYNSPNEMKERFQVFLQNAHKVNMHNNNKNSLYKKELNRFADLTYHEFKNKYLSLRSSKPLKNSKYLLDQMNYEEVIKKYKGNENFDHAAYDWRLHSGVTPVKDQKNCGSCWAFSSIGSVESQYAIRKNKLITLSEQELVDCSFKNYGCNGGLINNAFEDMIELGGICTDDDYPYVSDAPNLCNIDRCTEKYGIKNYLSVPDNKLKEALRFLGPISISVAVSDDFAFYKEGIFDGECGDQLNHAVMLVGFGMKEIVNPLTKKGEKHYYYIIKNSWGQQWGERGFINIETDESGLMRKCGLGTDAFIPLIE
UniProt Q99685, sequence (whole entry, unmodified, looked up): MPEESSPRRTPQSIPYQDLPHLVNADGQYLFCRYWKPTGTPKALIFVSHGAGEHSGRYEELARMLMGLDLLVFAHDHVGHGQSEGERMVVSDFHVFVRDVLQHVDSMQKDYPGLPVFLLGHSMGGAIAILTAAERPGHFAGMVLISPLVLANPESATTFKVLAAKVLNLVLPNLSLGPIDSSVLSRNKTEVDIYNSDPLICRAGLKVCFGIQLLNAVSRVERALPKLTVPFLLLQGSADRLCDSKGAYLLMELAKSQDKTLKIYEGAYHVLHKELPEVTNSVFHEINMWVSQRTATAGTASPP
UniProt Q8R2Y0, sequence (whole entry, looked up): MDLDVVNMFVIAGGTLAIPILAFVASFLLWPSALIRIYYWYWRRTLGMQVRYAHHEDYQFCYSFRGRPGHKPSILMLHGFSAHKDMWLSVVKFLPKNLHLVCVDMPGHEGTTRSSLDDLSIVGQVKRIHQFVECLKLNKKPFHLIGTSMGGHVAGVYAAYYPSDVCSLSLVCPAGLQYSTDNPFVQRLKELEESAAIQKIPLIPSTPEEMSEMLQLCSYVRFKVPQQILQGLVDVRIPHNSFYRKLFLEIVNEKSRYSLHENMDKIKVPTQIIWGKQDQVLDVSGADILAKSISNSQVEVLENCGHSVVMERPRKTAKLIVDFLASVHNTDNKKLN
UniProt P0A2T1, sequence (whole entry, looked up): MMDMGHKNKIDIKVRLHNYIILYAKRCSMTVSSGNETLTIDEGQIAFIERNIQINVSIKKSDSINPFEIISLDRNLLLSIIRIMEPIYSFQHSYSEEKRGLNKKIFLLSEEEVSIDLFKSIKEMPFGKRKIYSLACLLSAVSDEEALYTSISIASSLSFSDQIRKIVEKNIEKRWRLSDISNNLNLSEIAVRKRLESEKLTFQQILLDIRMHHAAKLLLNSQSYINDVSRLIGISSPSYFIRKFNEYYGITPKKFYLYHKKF
UniProt P33527, sequence (whole entry, looked up): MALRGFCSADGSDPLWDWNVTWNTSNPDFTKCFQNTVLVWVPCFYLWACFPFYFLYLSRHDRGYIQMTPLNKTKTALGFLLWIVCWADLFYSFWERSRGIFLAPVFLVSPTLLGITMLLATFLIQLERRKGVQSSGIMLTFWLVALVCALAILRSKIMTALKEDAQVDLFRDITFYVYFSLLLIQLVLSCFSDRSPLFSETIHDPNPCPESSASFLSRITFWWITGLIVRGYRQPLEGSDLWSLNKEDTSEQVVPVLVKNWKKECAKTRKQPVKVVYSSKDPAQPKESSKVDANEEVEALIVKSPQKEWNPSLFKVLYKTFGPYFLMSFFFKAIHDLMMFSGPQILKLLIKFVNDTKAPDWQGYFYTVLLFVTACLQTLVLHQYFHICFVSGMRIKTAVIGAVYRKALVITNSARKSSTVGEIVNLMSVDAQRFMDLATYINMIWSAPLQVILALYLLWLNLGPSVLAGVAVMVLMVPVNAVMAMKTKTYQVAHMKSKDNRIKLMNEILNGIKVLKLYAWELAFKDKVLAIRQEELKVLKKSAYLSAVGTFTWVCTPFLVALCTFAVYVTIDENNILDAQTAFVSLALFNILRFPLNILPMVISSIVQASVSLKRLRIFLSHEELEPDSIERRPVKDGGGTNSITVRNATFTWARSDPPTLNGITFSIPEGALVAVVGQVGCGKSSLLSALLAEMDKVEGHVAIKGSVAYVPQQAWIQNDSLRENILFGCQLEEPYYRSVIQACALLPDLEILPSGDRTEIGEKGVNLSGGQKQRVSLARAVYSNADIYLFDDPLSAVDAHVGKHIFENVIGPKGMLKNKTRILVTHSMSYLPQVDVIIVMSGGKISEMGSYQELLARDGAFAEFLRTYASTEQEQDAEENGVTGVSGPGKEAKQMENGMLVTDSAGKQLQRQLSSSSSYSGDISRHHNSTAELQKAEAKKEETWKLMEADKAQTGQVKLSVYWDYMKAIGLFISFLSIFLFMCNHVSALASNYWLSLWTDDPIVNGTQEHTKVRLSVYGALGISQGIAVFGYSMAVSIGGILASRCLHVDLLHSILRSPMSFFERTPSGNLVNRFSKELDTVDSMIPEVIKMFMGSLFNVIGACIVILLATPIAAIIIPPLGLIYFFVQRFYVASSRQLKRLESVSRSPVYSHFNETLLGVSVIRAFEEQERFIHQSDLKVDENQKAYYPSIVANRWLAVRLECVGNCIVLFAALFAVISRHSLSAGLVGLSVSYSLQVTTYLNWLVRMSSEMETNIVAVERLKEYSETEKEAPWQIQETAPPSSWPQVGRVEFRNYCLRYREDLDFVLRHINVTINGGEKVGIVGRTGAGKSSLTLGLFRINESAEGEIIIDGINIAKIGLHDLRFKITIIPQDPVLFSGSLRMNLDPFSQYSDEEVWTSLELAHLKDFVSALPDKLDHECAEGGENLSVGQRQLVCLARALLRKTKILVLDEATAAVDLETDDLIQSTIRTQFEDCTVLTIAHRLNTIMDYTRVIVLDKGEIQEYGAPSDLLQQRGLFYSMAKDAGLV
UniProt P05186, sequence (whole entry, looked up): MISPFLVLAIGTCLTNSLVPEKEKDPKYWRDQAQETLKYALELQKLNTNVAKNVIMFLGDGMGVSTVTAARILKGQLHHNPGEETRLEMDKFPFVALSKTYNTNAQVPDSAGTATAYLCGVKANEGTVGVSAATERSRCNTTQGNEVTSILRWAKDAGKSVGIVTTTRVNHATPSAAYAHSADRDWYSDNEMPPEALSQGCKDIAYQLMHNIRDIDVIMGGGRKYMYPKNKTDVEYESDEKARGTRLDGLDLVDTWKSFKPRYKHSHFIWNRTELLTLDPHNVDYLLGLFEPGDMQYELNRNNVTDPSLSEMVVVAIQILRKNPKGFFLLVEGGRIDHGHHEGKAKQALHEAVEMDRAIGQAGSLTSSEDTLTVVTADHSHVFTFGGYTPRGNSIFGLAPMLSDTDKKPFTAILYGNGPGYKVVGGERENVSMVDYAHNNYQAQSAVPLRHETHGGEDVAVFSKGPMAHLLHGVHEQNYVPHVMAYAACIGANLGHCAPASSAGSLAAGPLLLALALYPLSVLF
UniProt P34914, sequence (whole entry, looked up): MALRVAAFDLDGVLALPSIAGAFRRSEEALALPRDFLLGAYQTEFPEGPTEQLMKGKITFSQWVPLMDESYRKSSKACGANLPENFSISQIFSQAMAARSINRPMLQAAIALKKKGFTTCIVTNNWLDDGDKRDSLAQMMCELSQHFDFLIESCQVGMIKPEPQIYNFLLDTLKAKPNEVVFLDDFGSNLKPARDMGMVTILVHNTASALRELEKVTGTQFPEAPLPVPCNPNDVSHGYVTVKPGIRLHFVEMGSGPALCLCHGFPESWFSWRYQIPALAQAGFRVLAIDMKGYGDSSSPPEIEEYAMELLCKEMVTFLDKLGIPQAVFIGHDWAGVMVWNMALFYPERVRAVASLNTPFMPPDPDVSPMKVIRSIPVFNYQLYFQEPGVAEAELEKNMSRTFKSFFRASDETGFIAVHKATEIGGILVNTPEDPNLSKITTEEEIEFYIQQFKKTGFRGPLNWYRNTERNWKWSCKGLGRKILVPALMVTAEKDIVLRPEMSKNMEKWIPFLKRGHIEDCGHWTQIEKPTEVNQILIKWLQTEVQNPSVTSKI
UniProt Q16690, sequence (whole entry, looked up): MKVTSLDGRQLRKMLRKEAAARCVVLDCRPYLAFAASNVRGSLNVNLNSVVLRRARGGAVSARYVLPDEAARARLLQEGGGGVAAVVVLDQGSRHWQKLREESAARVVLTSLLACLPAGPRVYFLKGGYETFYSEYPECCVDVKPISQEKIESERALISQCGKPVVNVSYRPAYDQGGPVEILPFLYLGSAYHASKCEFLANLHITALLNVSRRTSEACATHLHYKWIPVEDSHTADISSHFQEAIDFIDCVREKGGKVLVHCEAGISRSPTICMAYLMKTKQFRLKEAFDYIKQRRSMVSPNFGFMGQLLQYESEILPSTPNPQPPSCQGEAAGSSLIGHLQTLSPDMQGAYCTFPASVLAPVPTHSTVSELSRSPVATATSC

The IC50 of `C[C@@H]1C[C@H]2[C@@H]3CCC4=CC(=O)C=C[C@]4(C)[C@@]3(Cl)[C@@H](O)C[C@]2(C)[C@@]1(OC(=O)c1ccco1)C(=O)CCl` is reported as 10.2 ± 9.3 µM (ABCC1 (Homo sapiens, UniProt P33527); efflux, inhibitor, flow cytometry; SupT1 cells overexpressing ABCC1; added: 500 nM DiSC3).
With `CN1[C@H]2CC[C@@H]1[C@@H](C(=O)N1CCCC1)[C@@H](c1ccc(I)cc1)C2` the IC50 was 0.797 µM (SLC6A2 (Homo sapiens, UniProt P23975); transporter uptake, inhibitor, radiometric).
With `O=C([O-])c1ccccc1-c1c2cc(Br)c(=O)cc-2oc2[c]([Hg+])c([O-])c(Br)cc12.[Na+].[Na+].[OH-]` the IC50 was 6.5 ± 0.2 µM (Dual specificity protein phosphatase 5 (Homo sapiens, UniProt Q16690); phosphatase activity; 30 min, without DTT, added: pNPP).
`C[C@H]1CNCCc2ccc(Cl)cc21` has a CL/F of 15.1 L/h/kg (male Sprague-Dawley rat, plasma; subcutaneous, 0.5 mg/kg, single dose).
`CCCCCc1cc(OC(=O)c2ccc(O)cc2O)cc(O)c1C(=O)O` has an IC50 of 500 µM (DNA topoisomerase 1 (topA, Escherichia coli, UniProt P06612); DNA relaxation, inhibitor; 30 min, 37 °C, added: supercoiled pBAD/Thio plasmid).
`CCCCCCCCCCCCCCCCCCCCCCCCC(=O)O` gave an IC50 of > 1000 µM (Gag-Pol polyprotein, reverse transcriptase (gag-pol, Human immunodeficiency virus 1, UniProt P03366); enzyme activity, inhibitor, absorbance).
`O=C1C2CC=CCC2C(=O)N1c1n[nH]c(Cc2ccccc2)n1` (centres unmarked) gave an IC50 of > 100 µM (ALPL (Homo sapiens, UniProt P05186); enzyme activity, inhibitor, colorimetric OD405; resynthesised dry powder, added: 0.5 mM pNPP).
The IC50 of `[I-].[Na+]` is reported as 4000 µM (Beta-lactamase OXA-10; enzyme activity, inhibitor; pH 7.2, with preincubation).
The IC50 of `Cc1c(P(=S)(c2ccccc2)c2ccccc2)n2ccccc2[n+]1CCCCc1ccccc1` is reported as 0.0011 µM (NPSR1 (Homo sapiens, UniProt Q6W5P4); calcium signal, antagonist).
For `CCCCC/C=C\C/C=C\C/C=C\C/C=C\CCCCN1C(=O)C=CC1=O`, the IC50 was 8.5 µM (MGLL (Homo sapiens, UniProt Q99685, C208A/C242A); enzyme activity, inhibitor; added: AHMMCE substrate).
For `[Cl-].[Na+]`, the IC50 was 67000 µM (Beta-lactamase OXA-10; enzyme activity, inhibitor; pH 7.2, with preincubation).
With `Oc1ccc(-c2ccc(Cl)cc2)c(Cl)c1` the IC50 was 1.5 µM (SULT2A1; enzyme activity, inhibitor, radiometric; pH 7.4).
For `CN[C@@](C)(C[18F])C(=O)O`, the tracer uptake was 1.5 %ID/g (MDA-MB-468 tumour model; host not given, bone; 1 h, tumour-bearing).
`Clc1nc2n[nH]nc2nc1Cl` gave an IC50 of 0.82 µM (Genome polyprotein NS2B-NS3 protease; enzyme activity, inhibitor; Zika virus; pH 8.0, added: 20 µM Pyr-RTKR-AMC).
The IC50 of `Cc1ccc2nc(N)[nH]c(=O)c2c1Sc1ccncc1` is reported as 200 µM (SHMT (Plasmodium falciparum, UniProt Q8I566); enzyme activity, radiometric; 20 min, 37 °C, added: serine 0.2 mM, THF 1 mM).
For `Oc1ccc(-c2cccc(Cl)c2)cc1Cl`, the IC50 was 23 µM (SULT2A1; enzyme activity, inhibitor, radiometric; pH 7.4).
For `CCOP(=O)(OCC)Oc1nc(Cl)c(Cl)cc1Cl`, the IC50 was 0.017 µM (muscarinic receptors, rat; radioligand displacement; aging cortex membranes; 90 min, 21 °C, added: 1 nM [3H]oxotremorine-M).
With `Oc1ccc(-c2ccc(-c3ccc(O)cc3)[se]2)cc1` the IC50 was 0.52 µM (Estrogen receptor (ESR1, Homo sapiens, UniProt P03372); antagonist; HEK293T; added: estradiol 10 nM).
For `O=P(O)(O)Oc1cc(OP(=O)(O)O)c(OP(=O)(O)O)cc1OP(=O)(O)O`, the IC50 was 4 ± 2 µM (Inositol polyphosphate-5-phosphatase A (Homo sapiens, UniProt Q14642); enzyme activity, inhibitor; added: 1 µM [3H]Ins(1,4,5)P3 substrate).
With `Cn1cc(C2=C(c3cn(CCCN)c4ccccc34)C(=O)NC2=O)c2ccccc21` the IC50 was 1.52 µM (Glycogen synthase kinase 3, short isoform (Leishmania infantum, UniProt A4HXQ3); enzyme activity, inhibitor; 90 min, 30 °C, added: ATP 2 µM).
With `CN(Cc1cccc(-c2ccncc2)c1)C(=O)OC(C(F)(F)F)C(F)(F)F` the IC50 was 0.038 µM (Abhd6 (Mus musculus, UniProt Q8R2Y0); competitive ABPP; mouse brain membrane proteome).
`CCCCN1C(=O)C(C=CC=CC=C2C(=O)N(c3ccc(S(=O)(=O)O)cc3)N=C2C)C(=O)N(CCCC)C1=O` gave a Ki of ≥ 0.046 µM (SLC4A1 (Homo sapiens, UniProt P02730); chloride exchange, 36Cl flux, measured: inward-facing unloaded transporter; 0 °C, minimum estimate, equilibrium binding).
With `NCc1ccc(-c2ncc(OCC3CCNCC3)nc2-c2ccc(-n3ccnn3)cc2)cc1` the IC50 was > 10 µM (Genome polyprotein NS2B-NS3 protease; inhibitor; Zika virus).
`O=c1[nH]c2ccccc2n1C1CCN(Cc2ccc(-c3nc4cc5[nH]cnc5cc4nc3-c3ccccc3)cc2)CC1` has an IC50 of 3.7 ± 0.9 µM (PSMB5 (Homo sapiens, UniProt P28074); enzyme activity; added: Suc-LLVY-AMC substrate, ATP).
The inhibition of `N=C(N)c1ccc(-c2ccc(-c3ccco3)o2)cc1F` is reported as 90% (Salmonella enterica; sodium azide mutagenicity; TA1535; 20 µM, 48 h, added: sodium azide 2 µg/plate after pre-exposure).
With `O=C(Nc1ccc(Cl)cc1)Nc1ccc(Cl)c(Cl)c1` the IC50 was 0.37 µM (Ephx2 (Mus musculus, UniProt P34914); enzyme activity, inhibitor, fluorescence).
`C[C@H](Cn1cnc2c(N)ncnc21)OCP(=O)(O)O` has an inhibition of 6% (human alphaherpesvirus 2; virus production, plaque reduction; human monocytes/macrophages; 0.04 µg/mL, 6 days).
For `O=[N+]([O-])CC1C(c2ccc3ccccc3n2)=CN(Cc2ccc(Cl)cc2)c2ccccc21` (centres unmarked), the IC50 was 80 µM (virF (Shigella flexneri, UniProt P0A2T1); reporter gene expression, inhibitor; Escherichia coli, virB-lacZ reporter strain; 3 h, 37 °C, 6.2% DMSO, added: 1 mM IPTG).
The IC50 of `Fc1ccc(-n2cc(COc3ccnc4cc(Cl)ccc34)nn2)cc1Cl` is reported as 45.1 µM and ~45 µM (FP2A (Plasmodium falciparum, UniProt Q8I6U4); enzyme activity, inhibitor, fluorescence; pH 5.5, with preincubation).
With `N=C(N)c1ccc(-c2ccc(-c3cccs3)o2)c(F)c1` the inhibition was 96% (Salmonella enterica; sodium azide mutagenicity; TA1535; 20 µM, 48 h, added: sodium azide 2 µg/plate after pre-exposure).
For `CNC(C)Cc1ccc2c(c1)OCO2` (racemic), the mood rating was 14.2 (visual analog scale, measured: Anxious; human; oral, 1.5 mg/kg, mean over session, unit not given; reference: pre-dose baseline).
The IC50 of `CC(C)c1ccc2c(c1)CC[C@H]1[C@](C)(CN)CCC[C@]21C` is reported as 1.35 µM (1205Lu; cell growth or viability, MTS; 72 h).
